Assay results from different studies.
Protocols differ between the studies behind these lines.
Organism: Leishmania amazonensis

| Structure (SMILES) | read-out | technique | cell line | strain | time | notes | IC50 [µM] |
| --- | --- | --- | --- | --- | --- | --- | --- |
| CCOC(=O)c1csc(NN=Cc2ccccc2O)n1 | parasite growth |  |  |  | 72 h | promastigote | 485 |
| Cn1c2ccc([N+](=O)[O-])cc2c(=O)n1Cc1ccccc1 | parasite growth | resazurin |  |  | 72 h | promastigote | 2 |
| N#C/C=C/C(=O)Oc1cccc(F)c1 | parasite growth | resazurin |  |  | 72 h | promastigote | 28.4 |
| C/C(=C\c1ccco1)[N+](=O)[O-] | parasite growth |  |  |  | 72 h | promastigote | 2.2 |
| CC(C)(C)c1ccc(OC(=O)/C=C/C#N)cc1 | parasite growth | resazurin | mouse Macrophage |  | 24 h | intracellular, amastigote | 67.2 |
| NCCCn1c2ccc([N+](=O)[O-])cc2c(=O)n1Cc1ccccc1 | parasite growth | resazurin |  |  | 72 h | promastigote | 1.3 |
| O=[N+]([O-])/C(Br)=C/c1ccco1 | parasite growth |  |  |  | 72 h | promastigote | 2.9 |
| CC(C)(C)CC(C)(C)Nc1c(-c2ccc3c(c2)OCO3)nc2ncccn12 |  | fluorimetry | peritoneal macrophages | RFP | 72 h | intracellular amastigotes | > 100 |
| COC(=O)Cn1c2ccc([N+](=O)[O-])cc2c(=O)n1Cc1ccccc1 | parasite growth | resazurin |  |  | 72 h | promastigote | 0.6 |
| COc1ccc(OC(=O)/C=C/C#N)cc1 | parasite growth | resazurin |  |  | 72 h | promastigote | 27.1 |
| CCOC(=O)c1csc(NN=Cc2ccccc2[N+](=O)[O-])n1 | parasite growth |  |  |  | 72 h | promastigote | 359 |

Excerpt of the above:
| Structure (SMILES) | read-out | technique | cell line | strain | time | notes | IC50 [µM] |
| --- | --- | --- | --- | --- | --- | --- | --- |
| CCOC(=O)c1csc(NN=Cc2ccccc2[N+](=O)[O-])n1 | parasite growth |  |  |  | 72 h | promastigote | 359 |
